Experimental data gathered from unrelated publications.
Lines come from different studies, so protocols differ. ± gives the spread as reported.
CDK19 with cyclin C: Cyclin-dependent kinase 19, with cyclin C (CDK19, Homo sapiens, UniProt Q9BWU1)
Chain of UniProt Q9BWU1 (whole entry, looked up): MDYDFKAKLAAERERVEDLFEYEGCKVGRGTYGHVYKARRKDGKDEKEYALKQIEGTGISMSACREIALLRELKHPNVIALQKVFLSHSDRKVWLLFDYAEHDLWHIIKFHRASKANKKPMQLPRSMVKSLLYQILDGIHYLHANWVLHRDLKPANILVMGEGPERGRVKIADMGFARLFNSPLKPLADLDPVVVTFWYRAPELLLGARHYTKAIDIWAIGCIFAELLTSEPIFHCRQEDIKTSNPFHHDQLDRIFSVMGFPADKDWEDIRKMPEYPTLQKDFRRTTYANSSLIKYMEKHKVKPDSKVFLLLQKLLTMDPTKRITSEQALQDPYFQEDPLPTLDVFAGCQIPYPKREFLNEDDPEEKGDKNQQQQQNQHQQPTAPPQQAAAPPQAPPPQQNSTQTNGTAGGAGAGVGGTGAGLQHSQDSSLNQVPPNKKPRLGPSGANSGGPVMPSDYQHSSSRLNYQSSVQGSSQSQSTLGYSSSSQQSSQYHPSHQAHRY
CDK19: Cyclin-dependent kinase 19 (CDK19, Homo sapiens, UniProt Q9BWU1)

SMILES | target | assay | conditions | how to read | endpoint | value
O=C(CSc1nc2nccnc2c(=O)n1CCc1ccccc1)Nc1nccs1 | CDK19 with cyclin C | kinase activity, inhibitor | 10 µM | – | inhibition | 17%
CN1CCN(C(=O)c2ccc3cc(CCNc4ncnc5ccc(C#N)cc45)ccc3c2)CC1 | CDK19 with cyclin C | TR-FRET kinetics | – | – | residence time | 2.65 min
CNc1ncc2c(/C=C/C(=O)N3CCC(OC)CC3)nn(Cc3cccc(C(F)(F)F)c3)c2n1 | CDK19 with cyclin C | kinase activity, inhibitor | 1 µM | baseline: untreated control | remaining activity | 96%
C1=C/COCc2cc(ccc2OCCN2CCCC2)Nc2nccc(n2)-c2cccc(c2)COC/1 | CDK19 | – | concentration not given, gene name CDK11 | – | percent of control | 97%
O=C(NC1CCC1)c1ccc2nc(-c3cccc(NS(=O)(=O)NCCN4CCCCC4)c3)cn2c1 | CDK19 | enzyme activity | 10 µM | – | remaining activity | 100%
Nc1ncnc2occ(-c3ccc(NC(=O)Nc4cc(C(F)(F)F)ccc4F)cc3)c12 | CDK19 | enzyme activity, inhibitor | 20 µM | – | remaining activity | 1.1%
C=CC(=O)N1CCC[C@@H](n2nc(-c3ccc(Oc4ccccc4)cc3)c3c(N)ncnc32)C1 | CDK19 with cyclin C | kinase activity, inhibitor, HotSpot radiometric | 100 nM, added: ATP 10 µM | – | remaining activity | 96.6 ± 0.7%
CN1CCN(C(=O)c2ccc3cc(CCNc4ccnc5ccc(C#N)cc45)ccc3c2)CC1 | CDK19 with cyclin C | TR-FRET kinetics | – | – | residence time | 6.13 min
CS(=O)(=O)Nc1cccc(-c2csc(NC(=O)CSc3nc4nccnc4c(=O)n3CCc3ccccc3)n2)c1 | CDK19 with cyclin C | kinase activity, inhibitor | 10 µM | – | inhibition | 1%
C#Cc1cnc(Nc2ccnc(CO)c2)nc1Nc1ccccc1S(C)(=O)=NC#N (centres unmarked) | CDK19 | kinase activity, kinase selectivity panel | 1 µM | baseline: control | remaining activity | 98%
COc1ccc(F)cc1C(=O)NCc1ccc(-c2nn([C@@H](C)C(F)(F)F)c(N)c2C(N)=O)cc1 | CDK19 with cyclin C | kinase activity, inhibitor, HotSpot radiometric | 1000 nM, added: ATP at Km | – | remaining activity | 106 ± 5.4%

Repeated from above:
SMILES | target | assay | conditions | how to read | endpoint | value
COc1ccc(F)cc1C(=O)NCc1ccc(-c2nn([C@@H](C)C(F)(F)F)c(N)c2C(N)=O)cc1 | CDK19 with cyclin C | kinase activity, inhibitor, HotSpot radiometric | 1000 nM, added: ATP at Km | – | remaining activity | 106 ± 5.4%
